Assay results collected from several papers.
Parts stem from different laboratories: compare values within a part only.

Sample 1 — method: RNA Bind-n-Seq; molecule type: RNA; sample: in vitro; concentration: 365 nM; baseline: no-protein control; reading: higher = stronger binding
Target: RNA binding protein fox-1 homolog 2, RRM domain, GST-SBP tag (RBFOX2, Homo sapiens, UniProt O43251-10, residues 100-194)
Notes: natural RNA segment, single round, ends assumed
Residues (chain): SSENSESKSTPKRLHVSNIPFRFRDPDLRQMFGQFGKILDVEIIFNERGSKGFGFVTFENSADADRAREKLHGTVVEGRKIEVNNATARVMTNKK
Under “RBNS enrichment (R)”, `GGGAGUUCUACAGUCCGACGAUCUAUAGUCUUCAGGUUCACAUGAACUUGGCUGUAUUCUGAUAACAUUGAGACCGUUUUCCACCAAGUUAGCCUCAUUUGUUCAGUAACACAUCUUACCGAGGAAAGGAGGCUGGAAUUCUCGGGUGCCAA` is recorded as 0.243.
For `GGGAGUUCUACAGUCCGACGAUCCUCGCCCACCGUUACCCUCUUCUUGUAUCUGAAUAUCAGAAACUAGAAAGUCCAACAGUGACACUCCCCCUGCUCCAAGGUGGGGACUUAAGUUUGUGAGGUACAAGAAUUGGAAUUCUCGGGUGCCAA`, “RBNS enrichment (R)” read 0.316.
For `GGGAGUUCUACAGUCCGACGAUCAUAGGUGCCCGCCACCAGACCCGGCUAAUUUUUUAGUUUUAGUAGAGACGGGGUUUCACCACGUUGGCCAGGCUGGUCUUAAAUGACCCUCUUAUUUUUAACUUGGAUACUGGAAUUCUCGGGUGCCAA`, “RBNS enrichment (R)” read 0.295.

Sample 2 — method: RNA Bind-n-Seq; molecule type: RNA; sample: in vitro; concentration: 200 nM; notes: whole 134-nt RNA, ends assumed; added: 150 mM KCl; baseline: input library; reading: higher = stronger binding
Target: Fragile X messenger ribonucleoprotein 1, C-terminal low-complexity region (Fmr1, Mus musculus, UniProt P35922)
With `GGGAGUUCUACAGUCCGACGAUCUCCUCAAGUCCUGUGCUACACAUCGUAUGUACCGAAUCGGGUGGUGGGGUGGAAAGUAUUAUGUUACGCCGUUCGGAUCUGCACUUCCAGUGGAAUUCUCGGGUGUCAAGG` the log2 enrichment was 0.556.
`GGGAGUUCUACAGUCCGACGAUCUGUGCUACACAUCGUAUGUACCGAAUCGGGCCCCCCCGGGGCCCCCCCGGGCCCCCCCGGGGAAAGUAUUAUGUUACGCCGUUCGGAUCUUGGAAUUCUCGGGUGUCAAGG` has a log2 enrichment of -1.63.
For `GGGAGUUCUACAGUCCGACGAUCCAAGUCCUGUGCUACACAUCGUAUGUACCGAAUCGGGUUUUUUUGGGUGGGUGGGAAAGUAUUAUGUUACGCCGUUCGGAUCUGCACUUCUGGAAUUCUCGGGUGUCAAGG`, the log2 enrichment was 0.964.
`GGGAGUUCUACAGUCCGACGAUCUUCCGGAAGAAGAAGCUCCGAUUUGGCCGGAGCCGGAUCCACGAGUGGGGUCUGUUUGCCAUGGAACCCAUUGCUGCUGACGAGAUGGUCUGGAAUUCUCGGGUGUCAAGG` has a log2 enrichment of -1.44.

Sample 3 — method: protein binding microarray; molecule type: double-stranded DNA, one strand shown; sample: in vitro; concentration: not given; baseline: not given; reading: higher = stronger binding
Target: Histone acetyltransferase KAT6A, winged helix 1, GST fusion (KAT6A, Homo sapiens, UniProt Q92794, residues 1-85)
Notes: 8-mer, flanks averaged, mean of 2 arrays, mostly near background
Target sequence (chain): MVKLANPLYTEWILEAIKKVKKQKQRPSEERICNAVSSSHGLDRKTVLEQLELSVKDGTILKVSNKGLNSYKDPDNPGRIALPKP
With `CGCGAGTA` the E-score was 0.251.
`AGGAAGCG` gave an E-score of 0.0598.
`CCGAAGTC` gave an E-score of 0.101.
With `AAAGGTCC` the E-score was -0.179.
For `GGCATACC`, the E-score was 0.0111.

Single results of other studies
For `PhoQ, residues 284 288 289 292 302 303 SSTMSV`, the fold induction was 10.1 (PhoP, residues 12 14 15 18 19 LFHKL (Escherichia coli, UniProt P23836); Sort-seq, refers to: YFP reporter; E. coli; PhoQ-PhoP variant library, added: 10 µM Mg2+; baseline: high Mg2+ state, higher = stronger signaling).

Some of these lines once more (sample 3):
`CCGAAGTC` gave an E-score of 0.101.
With `CGCGAGTA` the E-score was 0.251.
